Experimental data of several laboratories.
Each line is one published result; not all experiments were run side by side.
Sample: plasma

SMILES	test system	setting	half-life
O=C(COc1ccc(Cl)cc1)NC12CC(c3nnc([C@H]4C[C@@H](OC(F)(F)F)C4)o3)(C1)C2	human	oral, 100 mg, single dose, fasted, healthy volunteers	39 h
N#Cc1cccc(-c2ccc3ncc(-c4cc(F)cc(F)c4)c(N4CCC(N)CC4)c3c2)c1O	human	oral, 20 mg, single dose	28 h
COc1ccc([C@@H](O)c2cc(-c3ncnc4cc(N5CCOCC5)ccc34)c(F)cc2Cl)nn1	human	oral, 300 mg, multiple doses, twice daily, patients	11.4 h
CC(=O)N(C)[C@H]1CCN(C(=O)c2cnc3c(c2)C[C@](C)(c2ccc(F)cc2)N3)C1	male human	oral, 60 mg, multiple doses, once daily, steady state	28.4 h
C=CC(=O)NC1CCN(c2ncc3ncnc(Nc4ccc(Oc5ccc6c(c5)ncn6C)c(C)c4)c3n2)CC1	male human	oral, 60 mg, single dose, healthy volunteers	45.2 h
COc1ccc2c(c1)CN(C(=O)CCN1CCC(Cc3ccccc3)CC1)CC[S@@+]2[O-]	male human	intravenous, 0.6 mg/kg, single dose, healthy volunteers	4.52 h
NS(=O)(=O)OC[C@@H]1C[C@@H](n2ccc3c(N[C@H]4CCc5ccccc54)ncnc32)C[C@@H]1O	human	intravenous, 15 mg/m², single dose, patients	5.7 h
C[C@@H](Oc1ccc(S(C)(=O)=O)cc1C(=O)N1C[C@@H]2C[C@]2(c2cc(C(F)(F)F)on2)C1)C(F)(F)F	human	oral, 10 mg, single dose, fed	39.1 h
CC(C)=CCC/C(C)=C/CC/C(C)=C/CC[C@@](C)(O)CCC1=C(C)C(=O)C(C)=C(C)C1=O	human	oral, 400 mg, single dose, healthy volunteers	10.9 h
CNC(=O)n1ccc2cc(Oc3ccnc(NC(=O)c4ccc(C5CCN(CCO)CC5)cc4)c3)c(OCCOC)cc21	human	oral, 35 mg, single dose, fasted, healthy volunteers	30 h
COc1ccc([C@@H]2CN(C(=O)[C@@H](O)CO)C[C@@]2(C)[C@@H](C)O)cc1OC1CN(c2ccc(C)cn2)C1	human	oral, 20 mg, single dose, healthy volunteers	9.39 h
OC[C@H]1O[C@@H](c2cc(Cc3ccc(C4CC4)cc3)c(Cl)c3c2CCO3)[C@H](O)[C@@H](O)[C@@H]1O	human	oral, 0.3 mg, single dose, fed, healthy volunteers	12.3 h

For quick reference, copied from above:
SMILES	test system	setting	half-life
OC[C@H]1O[C@@H](c2cc(Cc3ccc(C4CC4)cc3)c(Cl)c3c2CCO3)[C@H](O)[C@@H](O)[C@@H]1O	human	oral, 0.3 mg, single dose, fed, healthy volunteers	12.3 h
O=C(COc1ccc(Cl)cc1)NC12CC(c3nnc([C@H]4C[C@@H](OC(F)(F)F)C4)o3)(C1)C2	human	oral, 100 mg, single dose, fasted, healthy volunteers	39 h
